Experimental data collected from several papers.
Parts stem from different laboratories: compare values within a part only. Substitutions count along the parent as printed.

Series 1
Target: TEF, bZIP domain (human)
Method: DHFR protein complementation
Sample: yeast
Notes: single substitutions, most at no-binding floor
Relative to: wild-type JUN-FOS pair
Direction: higher = stronger binding
Starting sequence: JUN, bZIP domain (human); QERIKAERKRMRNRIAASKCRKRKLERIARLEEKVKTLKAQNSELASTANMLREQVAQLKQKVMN; partner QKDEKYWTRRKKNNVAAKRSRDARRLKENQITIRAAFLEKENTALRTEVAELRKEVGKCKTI
Substitution	binding fitness [natural log]
A29T	-1.44
L59W	-1.51
R30M	-1.49
V56A	-1.48
S43Q	-1.19
K36V	-1.41
K36R	-1.47
E33I	-1.5
A29D	-1.53
K34M	-1.48
Q55V	-1.49
A57T	-1.12
I28C	-1.34
Q41K	-1.5

Series 2
Target: Histone acetyltransferase KAT6A, winged helix 2, GST fusion (KAT6A, Homo sapiens, UniProt Q92794, residues 85-181)
Method: protein binding microarray
Molecule type: double-stranded DNA, one strand shown
Sample: in vitro
Tested at: not given
Notes: 8-mer, flanks averaged, mean of 2 arrays, mostly near background
Relative to: not given
Direction: higher = stronger binding
Construct (chain): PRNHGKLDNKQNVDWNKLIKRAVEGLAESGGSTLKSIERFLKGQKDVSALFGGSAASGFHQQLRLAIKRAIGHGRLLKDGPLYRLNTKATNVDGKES
Sequence	E-score
TGCTAGCA	0.0125
ATAATTAG	0.0527
GGATACAC	-0.0907
CTGTCTCC	0.16
GCTGGGCA	0.189
GTCTTTTA	-0.0356
CCACTGCC	0.135
CGAGGTTC	0.0722
ACCACTCA	0.0718
CCGCAACC	0.187
TCATCGGA	-0.00355
CTGTTAAC	0.0743
CCGCGCAG	0.225
CAACTTCG	-0.0317
ATGGCAAT	-0.0421
GTTGACGA	-0.0413
ACGATGGG	-0.158
AATAAATC	-0.0183
ATGCACTG	0.108
ACTCTCCT	-0.186
AGCGATGA	0.154

Series 3
Target: RNA binding protein fox-1 homolog 2, RRM domain, GST-SBP tag (RBFOX2, Homo sapiens, UniProt O43251-10, residues 100-194)
Method: RNA Bind-n-Seq
Molecule type: RNA
Sample: in vitro
Tested at: 365 nM
Notes: natural RNA segment, single round, ends assumed
Relative to: no-protein control
Direction: higher = stronger binding
Constant ends, left off below: GGGAGUUCUACAGUCCGACGAUC … UGGAAUUCUCGGGUGCCAA
Construct (chain): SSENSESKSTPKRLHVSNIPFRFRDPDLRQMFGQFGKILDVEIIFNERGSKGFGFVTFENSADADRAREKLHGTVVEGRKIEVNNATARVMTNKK
Sequence	RBNS enrichment (R)
CAGAGGUAGGGCAGUGGGCUCUGCAGGCCACCUGGCUGGGGUUGGUGGGGGUCCUCUCUCCUGCCCCAGCUUCCACUCAGCCACCACAGUUGCCACACCAUGGGGUGGAG	0.231
UUUUUAAAUACUACAAAUUAGUGUCAGGCAGUUCCCAGAAAGAGACAAGAAAUCCUAGUGGCCUCCCAGACUGCAGGGUCCCCAAGGAUGGAAAGGGAAUGUUCUGCUGG	1.57
AAGAAAUAGCCAACUAGUUAAAAUGUAUGAAAAGAAAACUUUCCCCUGCUGUAUUUGUUGUGUAACAUAAAUAAGCCUUCUGAGAAGCAGGGUGAAUAAAGUUUAGGGAG	0.514
AGCGUUGCCUUUUUAAAAAGGCACUCACCCUGAGUUGUUAAGAACUGGACCUGCCCCACCCUCAGAUUCCUUAAAGGAUGAAGAGUGUGCUGUACACUCAGCAUAUGUGC	0.199
CAGAUCUGACCUGCCUGAGACAACCCAGGUAAUUUGGGGUUUGAUCAGAGGUCUAAUGGUAGCAAACGACACAGCGACCUUCUUCAUUACUUUGGCCAAGGUUGAAGAUG	0.231
UUUUUAAAUUUUUUUACAAAAGGUUUUUAAACAGAUUAGGGUAGGUGAUGGUUUAAAUCAAUUAAGUGGCAUUGGAAACCUAGGGUUUCCUUUUGAUUAAGAGCCUUUUU	0.568
UUGGGUUUUAGUUGGGAUUUUACAUAGCUUGCAUUUUAAUUCUUUGGUUCUUUGCUGUUUCUAUUAACCCACAGCAUUAUUUUAAUAAAUGUUAUAAUACCAACCUACUA	4.82
GGCAGGUUCUGUGGAAGAAGUUUUUUGCCUGUUACGGGAAACUCAUCACACAAGAAGAGACAACUUCACUUUGAACAUUAGAUCCACUCAAGAUUAGUCCACGAAUGAUC	0.561

Series 4
Target: CCNA1, cyclin fold, Cln2 fusion (human)
Method: yeast growth competition, sequencing
Sample: yeast
Notes: weak parent motif
Relative to: not given
Direction: higher = stronger binding
Starting sequence: DTL docking peptide (human); PSSMRKICTYFHR; partner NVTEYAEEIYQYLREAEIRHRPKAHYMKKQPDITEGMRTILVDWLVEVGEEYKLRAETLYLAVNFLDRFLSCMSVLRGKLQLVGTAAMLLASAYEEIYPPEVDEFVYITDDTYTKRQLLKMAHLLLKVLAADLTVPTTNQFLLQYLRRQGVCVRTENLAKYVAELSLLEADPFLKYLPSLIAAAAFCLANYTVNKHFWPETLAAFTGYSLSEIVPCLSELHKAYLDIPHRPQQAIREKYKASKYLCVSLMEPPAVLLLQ
Substitution	normalised enrichment score
T9A	-0.321
K6A	-0.246
P1A	-0.592
I7A	0.0143
M4A	-0.185
F11A	0.117

Single results of other studies
Substance	target	test	system	conditions	how to read	quantity	result
PhoQ, residues 284 288 289 292 302 303 SIHLQL	PhoP, residues 12 14 15 18 19 NHTVL (Escherichia coli, UniProt P23836)	Sort-seq, measured: YFP reporter	E. coli	PhoQ-PhoP variant library, with: 10 µM Mg2+	relative to: high Mg2+ state, higher = stronger signaling	fold induction	5.38

A few entries again (series 1):
Substitution	binding fitness [natural log]
K34M	-1.48
A57T	-1.12
Q55V	-1.49
K36V	-1.41
K36R	-1.47
